Assay results pooled from the literature.
Compare with care: the assays were run in different laboratories.
Sequence of UniProt O75747 (whole entry, looked up): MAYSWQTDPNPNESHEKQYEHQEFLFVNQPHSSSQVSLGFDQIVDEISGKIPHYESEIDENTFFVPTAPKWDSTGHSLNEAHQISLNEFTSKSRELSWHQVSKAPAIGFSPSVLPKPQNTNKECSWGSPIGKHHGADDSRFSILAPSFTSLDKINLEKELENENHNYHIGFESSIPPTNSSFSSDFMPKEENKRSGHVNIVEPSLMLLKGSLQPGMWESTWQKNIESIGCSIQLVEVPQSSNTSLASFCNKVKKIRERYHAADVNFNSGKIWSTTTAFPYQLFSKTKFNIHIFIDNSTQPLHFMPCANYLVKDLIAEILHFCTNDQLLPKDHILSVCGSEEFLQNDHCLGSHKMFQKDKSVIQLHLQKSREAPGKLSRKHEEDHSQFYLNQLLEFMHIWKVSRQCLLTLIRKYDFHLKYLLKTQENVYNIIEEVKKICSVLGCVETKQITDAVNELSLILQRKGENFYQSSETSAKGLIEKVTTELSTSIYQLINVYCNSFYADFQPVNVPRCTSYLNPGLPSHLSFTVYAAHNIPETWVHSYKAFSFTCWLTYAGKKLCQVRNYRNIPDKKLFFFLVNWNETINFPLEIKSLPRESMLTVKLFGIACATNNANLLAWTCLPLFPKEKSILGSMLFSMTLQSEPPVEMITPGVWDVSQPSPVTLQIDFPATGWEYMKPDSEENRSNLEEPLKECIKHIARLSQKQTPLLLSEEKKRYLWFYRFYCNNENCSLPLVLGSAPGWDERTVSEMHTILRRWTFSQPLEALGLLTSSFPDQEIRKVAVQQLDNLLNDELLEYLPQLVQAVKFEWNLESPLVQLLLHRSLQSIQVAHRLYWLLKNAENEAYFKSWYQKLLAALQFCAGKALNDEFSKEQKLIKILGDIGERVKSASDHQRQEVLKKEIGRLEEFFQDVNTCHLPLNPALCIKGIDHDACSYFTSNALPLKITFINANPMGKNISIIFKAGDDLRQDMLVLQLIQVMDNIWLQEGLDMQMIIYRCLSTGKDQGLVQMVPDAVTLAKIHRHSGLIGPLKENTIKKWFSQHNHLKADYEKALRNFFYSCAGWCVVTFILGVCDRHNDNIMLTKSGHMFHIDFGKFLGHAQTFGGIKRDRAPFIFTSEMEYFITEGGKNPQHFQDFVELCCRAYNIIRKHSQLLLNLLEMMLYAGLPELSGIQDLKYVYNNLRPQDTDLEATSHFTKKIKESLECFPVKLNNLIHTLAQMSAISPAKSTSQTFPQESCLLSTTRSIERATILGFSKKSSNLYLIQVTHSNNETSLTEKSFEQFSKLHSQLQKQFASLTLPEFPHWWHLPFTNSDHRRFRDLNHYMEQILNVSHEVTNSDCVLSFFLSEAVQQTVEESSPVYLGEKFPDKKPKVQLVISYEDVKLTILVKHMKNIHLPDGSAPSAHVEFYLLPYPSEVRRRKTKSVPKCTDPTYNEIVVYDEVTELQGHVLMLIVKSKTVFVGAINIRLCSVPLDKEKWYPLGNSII

With COC(CNC1=CC2=NCCc3c[nH]c(c32)C1=O)c1c[nH]c2ccccc12 (centres unmarked) the CC50 was 2 µM (HCT-116; cell growth or viability, MTT; 72 h).
Cc1ccc(C(C)c2ccc(NC(=O)CN(C)c3ccccc3N3CCCC3=O)cc2)cc1 (centres unmarked) has a CC50 of over 40 µM (HepG2; cell growth or viability, ATP luminescence; 48 h).
O=C(Nc1ccc([N+](=O)[O-])cc1Cl)c1cc(Cl)ccc1O gave a CC50 of 1 µM (A549; cell growth or viability, resazurin; 72 h).
Cn1c(Cn2ccc(C(F)(F)F)c(Oc3cc(Cl)cc(C#N)c3)c2=O)n[nH]c1=O has a CC50 of over 47 µM (MT4; cell growth or viability, MTT; 5 days).
For Cc1ccc(N(c2ccc(NC(=O)CN(C)c3ccccc3N3CCCC3=O)cn2)C(C)C)cc1, the CC50 was over 40 µM (HepG2; cell growth or viability, ATP luminescence; 48 h).
O[C@H](CNCCN1CCN(C(c2ccccc2)c2ccccc2)CC1)c1cc(Cl)cc2c1-c1ccc(Cl)cc1C2 gave a CC50 of 8 µM (HepG2; cell growth or viability, MTT; 72 h).
The CC50 of O=C(CNc1ccccc1N1CCCC1=O)Nc1ccc(Oc2ccc(Cl)cc2)cc1 is reported as 16.8 µM (HepG2; cell growth or viability, ATP luminescence; 48 h).
OC(c1cc(C(F)(F)F)nc2c(C(F)(F)F)cccc12)C1CCCCN1 (centres unmarked) gave a CC50 of 3.3 µM (HepG2; cell growth or viability; 48 h).
With Cc1ccc(N(C)c2ccc(NC(=O)CN(C)c3ccccc3N3CCCC3=O)cc2)cn1 the CC50 was over 40 µM (HepG2; cell growth or viability, ATP luminescence; 48 h).
CCCCC(=O)Nc1ccc(-c2ccc3ncn(CCC)c(=O)c3c2)cn1 has a remaining binding of 58% (PIK3C2G (Homo sapiens, UniProt O75747); binding, competition with immobilised ligand; 0.5 µM).
For CC(C)c1ccc(O)c(=O)cc1, the CC50 was 53.4 µM (HepDES19; cell growth or viability, MTS; 72 h).
Cc1ncsc1-c1ccc(CNC(=O)[C@@H]2C[C@@H](O)CN2C(=O)[C@@H](NC(=O)COCCOCCn2cc(COc3ccc(-c4nc5cc(-c6ccccc6)ccn5c4Nc4ccc(C(=O)O)cc4)cc3)nn2)C(C)(C)C)cc1 has a CC50 of 152 µM (HCT-116; cell growth or viability; 72 h).
CCN(c1ccc(C)cc1)c1ccc(NC(=O)CN(C)c2ccccc2N2CCCC2=O)cc1 gave a CC50 of over 40 µM (HepG2; cell growth or viability, ATP luminescence; 48 h).
COc1ccc(S(=O)(=O)ON=C2C=C(C)C(=O)C(C)=C2)cc1 gave a CC50 of 8.44 µM (PANC-1; cell growth or viability).
The CC50 of CCCCNC[C@H](O)c1cc(Cl)cc2c1-c1ccc(Cl)cc1C2 is reported as 20.9 µM (HepG2; cell growth or viability; 48 h).
O=C1C(NCCc2ccc(O)cc2)=CC2=NCCc3c[nH]c1c32 gave a CC50 of 8 µM (HCT-116; cell growth or viability, MTT; 72 h).
O=C(Sc1cccccc1=O)c1ccccc1 gave a CC50 of 66.7 µM (HepDES19; cell growth or viability, MTS; 72 h).
O=C1c2[nH]cc3c2C(=NCC3)c2c(-c3ccc(O)cc3)c[nH]c21 has a CC50 of 0.2 µM (HCT-116; cell growth or viability, MTT; 72 h).
The CC50 of Nc1ccn([C@@H]2CS[C@H](CO)O2)c(=O)n1 is reported as over 87.2 µM (MT4; cell growth or viability, MTT; 5 days).
For O[C@H](CNCCCC(F)(F)F)c1cc(Cl)cc2c1-c1ccc(Cl)cc1C2, the CC50 was 6.9 µM (HepG2; cell growth or viability, MTT; 72 h).
With Cc1ccc(N(C)c2ccc(NC(=O)CN(C)c3ccccc3N3CCCC3=O)cc2)cc1 the CC50 was over 40 µM (HepG2; cell growth or viability, ATP luminescence; 48 h).
The CC50 of CC1CS(=O)(=O)CCN1/N=C/c1ccc([N+](=O)[O-])o1 (centres unmarked) is reported as over 200 µM (THP-1; cell growth or viability, WST-1; 24 h).
Cc1ccc(N(C)c2ccc(NC(=O)CN(C)c3ccccc3N3CCCC3=O)cc2)cc1Cl has a CC50 of over 40 µM (HepG2; cell growth or viability, ATP luminescence; 48 h).
With CCCCCNCC(O)c1cc(Cl)cc2c1-c1ccc(Cl)cc1C2 (racemic) the CC50 was 4.1 µM (HepG2; cell growth or viability; 48 h).
With Cc1ccc(N(C)c2ccc(NC(=O)CN(C)c3ccccc3N3CCCC3=O)cc2F)cc1 the CC50 was over 40 µM (HepG2; cell growth or viability, ATP luminescence; 48 h).
For Nc1nc2c(ncn2COCCO)c(=O)[nH]1, the CC50 was 206 µM (BEAS-2B; cell growth or viability, MTT; 48 h).

For quick reference, copied from above:
O=C(Sc1cccccc1=O)c1ccccc1 gave a CC50 of 66.7 µM (HepDES19; cell growth or viability, MTS; 72 h).
O=C1c2[nH]cc3c2C(=NCC3)c2c(-c3ccc(O)cc3)c[nH]c21 has a CC50 of 0.2 µM (HCT-116; cell growth or viability, MTT; 72 h).
The CC50 of Nc1ccn([C@@H]2CS[C@H](CO)O2)c(=O)n1 is reported as over 87.2 µM (MT4; cell growth or viability, MTT; 5 days).
For O[C@H](CNCCCC(F)(F)F)c1cc(Cl)cc2c1-c1ccc(Cl)cc1C2, the CC50 was 6.9 µM (HepG2; cell growth or viability, MTT; 72 h).
